Assay results from different studies.
Compare with care: the assays were run in different laboratories. ± gives the spread as reported.
Spike glycoprotein: Spike glycoprotein (Severe acute respiratory syndrome coronavirus 2, UniProt P0DTC2)
gag capsid C-terminal domain: Gag polyprotein, capsid C-terminal domain (gag, UniProt P12493)
cyp121: Mycocyclosin synthase (cyp121, Mycobacterium tuberculosis, UniProt P9WPP7)
UniProt P9WPP7, sequence (whole entry, looked up): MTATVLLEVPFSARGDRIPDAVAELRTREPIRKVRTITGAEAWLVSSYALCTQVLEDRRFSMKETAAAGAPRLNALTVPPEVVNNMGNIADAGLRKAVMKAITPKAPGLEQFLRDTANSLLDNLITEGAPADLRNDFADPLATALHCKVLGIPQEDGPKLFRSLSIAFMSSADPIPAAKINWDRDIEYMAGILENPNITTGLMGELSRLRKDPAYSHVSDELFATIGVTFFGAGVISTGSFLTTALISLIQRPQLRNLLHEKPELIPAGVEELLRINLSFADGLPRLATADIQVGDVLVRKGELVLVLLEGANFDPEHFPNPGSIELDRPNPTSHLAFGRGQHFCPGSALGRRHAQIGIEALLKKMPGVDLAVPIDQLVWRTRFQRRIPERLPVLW
UniProt P03314, sequence (whole entry, looked up): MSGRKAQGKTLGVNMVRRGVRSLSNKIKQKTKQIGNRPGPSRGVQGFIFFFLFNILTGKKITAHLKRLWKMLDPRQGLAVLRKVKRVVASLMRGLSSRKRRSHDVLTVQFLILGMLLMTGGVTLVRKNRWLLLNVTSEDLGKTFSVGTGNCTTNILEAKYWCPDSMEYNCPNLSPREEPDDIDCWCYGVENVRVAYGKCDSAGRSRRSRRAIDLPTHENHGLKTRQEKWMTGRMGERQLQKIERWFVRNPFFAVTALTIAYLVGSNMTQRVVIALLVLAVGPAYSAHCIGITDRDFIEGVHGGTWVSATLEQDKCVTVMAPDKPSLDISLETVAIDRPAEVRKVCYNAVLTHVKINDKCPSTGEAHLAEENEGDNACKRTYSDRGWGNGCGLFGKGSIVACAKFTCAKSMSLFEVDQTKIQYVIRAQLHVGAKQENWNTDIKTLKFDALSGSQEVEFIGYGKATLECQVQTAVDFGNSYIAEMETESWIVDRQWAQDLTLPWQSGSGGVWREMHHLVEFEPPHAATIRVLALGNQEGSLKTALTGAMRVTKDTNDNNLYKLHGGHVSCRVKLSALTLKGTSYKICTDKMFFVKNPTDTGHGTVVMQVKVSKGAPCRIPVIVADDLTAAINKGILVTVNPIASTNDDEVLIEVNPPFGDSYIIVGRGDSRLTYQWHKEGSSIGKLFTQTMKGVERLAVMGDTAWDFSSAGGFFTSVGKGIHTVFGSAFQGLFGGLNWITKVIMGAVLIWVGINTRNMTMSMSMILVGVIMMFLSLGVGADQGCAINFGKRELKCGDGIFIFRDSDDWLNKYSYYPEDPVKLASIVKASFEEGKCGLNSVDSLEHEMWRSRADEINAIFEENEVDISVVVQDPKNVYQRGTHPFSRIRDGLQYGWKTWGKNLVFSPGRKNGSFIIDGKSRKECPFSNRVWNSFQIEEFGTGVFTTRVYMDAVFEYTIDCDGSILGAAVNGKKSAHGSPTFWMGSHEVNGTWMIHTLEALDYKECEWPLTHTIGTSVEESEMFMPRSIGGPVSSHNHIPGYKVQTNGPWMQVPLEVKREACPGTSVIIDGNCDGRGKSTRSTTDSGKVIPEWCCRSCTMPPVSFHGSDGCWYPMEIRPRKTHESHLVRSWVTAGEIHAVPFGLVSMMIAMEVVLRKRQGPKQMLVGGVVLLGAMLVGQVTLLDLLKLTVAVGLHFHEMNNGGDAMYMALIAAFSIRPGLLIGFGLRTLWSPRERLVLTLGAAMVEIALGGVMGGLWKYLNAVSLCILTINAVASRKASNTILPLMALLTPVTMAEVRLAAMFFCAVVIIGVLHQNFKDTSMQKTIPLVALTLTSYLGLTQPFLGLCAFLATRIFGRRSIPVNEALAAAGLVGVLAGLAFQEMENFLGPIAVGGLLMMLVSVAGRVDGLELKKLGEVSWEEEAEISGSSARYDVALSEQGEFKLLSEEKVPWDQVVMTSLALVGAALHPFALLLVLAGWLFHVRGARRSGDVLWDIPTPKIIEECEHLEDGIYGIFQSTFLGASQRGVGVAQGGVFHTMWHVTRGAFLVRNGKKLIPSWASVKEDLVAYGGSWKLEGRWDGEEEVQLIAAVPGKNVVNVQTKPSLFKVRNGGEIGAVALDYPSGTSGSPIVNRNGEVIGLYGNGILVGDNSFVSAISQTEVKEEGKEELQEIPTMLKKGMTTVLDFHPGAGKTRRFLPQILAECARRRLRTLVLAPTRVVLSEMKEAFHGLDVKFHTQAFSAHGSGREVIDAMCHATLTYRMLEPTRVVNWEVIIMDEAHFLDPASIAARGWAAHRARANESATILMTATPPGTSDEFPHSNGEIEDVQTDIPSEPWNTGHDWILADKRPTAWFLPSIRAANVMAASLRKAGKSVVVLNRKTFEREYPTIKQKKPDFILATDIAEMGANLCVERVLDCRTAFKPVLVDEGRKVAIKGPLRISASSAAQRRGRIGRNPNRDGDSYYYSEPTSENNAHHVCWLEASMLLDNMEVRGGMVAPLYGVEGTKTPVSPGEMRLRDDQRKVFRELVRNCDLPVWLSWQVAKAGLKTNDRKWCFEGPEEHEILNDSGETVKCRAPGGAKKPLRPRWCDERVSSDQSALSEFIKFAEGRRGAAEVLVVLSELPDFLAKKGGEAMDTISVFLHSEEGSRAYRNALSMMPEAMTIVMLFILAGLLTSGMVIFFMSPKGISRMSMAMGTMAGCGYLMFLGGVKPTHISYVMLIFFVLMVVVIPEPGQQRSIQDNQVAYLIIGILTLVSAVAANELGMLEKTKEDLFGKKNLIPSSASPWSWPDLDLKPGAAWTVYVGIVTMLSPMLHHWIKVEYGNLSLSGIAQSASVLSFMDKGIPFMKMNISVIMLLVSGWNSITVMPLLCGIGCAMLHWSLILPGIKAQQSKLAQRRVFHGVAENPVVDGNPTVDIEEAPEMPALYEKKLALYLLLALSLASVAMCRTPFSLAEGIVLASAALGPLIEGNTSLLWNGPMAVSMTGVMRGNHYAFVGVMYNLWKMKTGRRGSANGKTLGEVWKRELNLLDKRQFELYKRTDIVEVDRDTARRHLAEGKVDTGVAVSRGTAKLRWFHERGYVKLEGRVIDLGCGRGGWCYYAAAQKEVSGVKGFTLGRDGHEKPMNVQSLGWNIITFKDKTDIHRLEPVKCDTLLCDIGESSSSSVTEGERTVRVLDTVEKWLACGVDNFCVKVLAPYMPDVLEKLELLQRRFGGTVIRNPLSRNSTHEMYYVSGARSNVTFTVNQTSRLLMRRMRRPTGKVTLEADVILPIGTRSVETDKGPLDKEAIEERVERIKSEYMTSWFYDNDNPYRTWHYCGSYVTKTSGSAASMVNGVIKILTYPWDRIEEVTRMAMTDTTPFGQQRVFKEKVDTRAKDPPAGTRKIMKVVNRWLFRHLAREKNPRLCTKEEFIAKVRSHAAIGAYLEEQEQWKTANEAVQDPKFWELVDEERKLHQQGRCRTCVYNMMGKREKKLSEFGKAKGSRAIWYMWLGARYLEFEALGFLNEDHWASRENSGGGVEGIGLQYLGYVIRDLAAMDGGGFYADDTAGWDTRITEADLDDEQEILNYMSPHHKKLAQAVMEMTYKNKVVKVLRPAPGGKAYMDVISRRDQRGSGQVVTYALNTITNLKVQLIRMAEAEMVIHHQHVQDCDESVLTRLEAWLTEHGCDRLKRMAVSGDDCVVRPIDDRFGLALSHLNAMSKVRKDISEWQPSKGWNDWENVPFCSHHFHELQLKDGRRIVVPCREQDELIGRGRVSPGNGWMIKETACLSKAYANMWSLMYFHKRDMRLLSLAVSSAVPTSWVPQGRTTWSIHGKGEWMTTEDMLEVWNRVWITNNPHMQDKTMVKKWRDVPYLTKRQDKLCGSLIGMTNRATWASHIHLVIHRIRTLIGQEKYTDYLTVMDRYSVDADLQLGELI
UniProt O82882, sequence (whole entry, looked up): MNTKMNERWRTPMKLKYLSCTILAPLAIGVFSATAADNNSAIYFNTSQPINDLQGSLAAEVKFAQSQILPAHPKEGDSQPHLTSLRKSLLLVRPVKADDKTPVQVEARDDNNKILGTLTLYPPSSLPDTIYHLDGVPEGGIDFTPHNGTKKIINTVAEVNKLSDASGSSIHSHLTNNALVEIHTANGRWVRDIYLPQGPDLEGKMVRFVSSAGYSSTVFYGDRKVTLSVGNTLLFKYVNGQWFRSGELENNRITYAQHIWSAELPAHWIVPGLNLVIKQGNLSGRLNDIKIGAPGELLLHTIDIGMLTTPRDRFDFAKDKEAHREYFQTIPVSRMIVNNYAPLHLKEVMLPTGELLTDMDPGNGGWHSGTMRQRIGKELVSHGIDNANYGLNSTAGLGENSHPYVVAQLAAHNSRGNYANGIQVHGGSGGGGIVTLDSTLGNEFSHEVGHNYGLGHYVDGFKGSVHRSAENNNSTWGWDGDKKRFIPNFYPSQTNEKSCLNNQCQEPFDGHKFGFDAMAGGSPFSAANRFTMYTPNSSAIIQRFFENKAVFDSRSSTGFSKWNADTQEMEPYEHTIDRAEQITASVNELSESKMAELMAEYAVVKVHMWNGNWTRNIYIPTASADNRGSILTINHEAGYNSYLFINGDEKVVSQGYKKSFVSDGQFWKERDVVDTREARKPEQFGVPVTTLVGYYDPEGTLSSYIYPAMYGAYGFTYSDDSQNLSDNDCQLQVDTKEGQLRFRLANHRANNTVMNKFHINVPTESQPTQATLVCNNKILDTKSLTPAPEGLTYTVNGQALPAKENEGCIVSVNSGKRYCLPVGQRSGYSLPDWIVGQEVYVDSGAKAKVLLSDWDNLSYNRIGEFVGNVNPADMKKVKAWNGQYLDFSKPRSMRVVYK

Molecule | target | assay | system | setting | Kd
COc1cc2c3cc1Oc1c(OC)c(OC)cc4c1[C@@H](Cc1ccc(O)c(c1)Oc1ccc(cc1)C[C@@H]3N(C)CC2)N(C)CC4 | Spike glycoprotein | binding, BLI | – | – | 111 µM
CC[C@H](C)[C@H](NC(=O)[C@@H]1CCCN1C(=O)[C@H](C)NC(=O)[C@@H]1CSSC[C@@H]2NC(=O)[C@H](CC(=O)O)NC(=O)[C@H](CCCNC(=N)N)NC(=O)[C@H](CCC(=O)O)NC(=O)[C@H](CCCNC(=N)N)NC(=O)CNC(=O)[C@H](CC(=O)O)NC(=O)[C@@H]3CSSC[C@H](NC(=O)[C@H](CCC(=O)O)NC(=O)[C@H](CC(C)C)NC(=O)CNC(=O)[C@H](C)NC(=O)[C@H](CSSC[C@H](NC(=O)[C@H](Cc4ccccc4)NC(=O)[C@@H](N)CO)C(=O)N[C@@H](CC(C)C)C(=O)N[C@@H](C(C)C)C(=O)N[C@@H](CCCCN)C(=O)N[C@@H](Cc4c[nH]c5ccccc45)C(=O)N[C@@H](CCCCN)C(=O)N[C@@H](CCC(N)=O)C(=O)N3)NC2=O)C(=O)N[C@@H](Cc2c[nH]c3ccccc23)C(=O)N[C@@H](CCCCN)C(=O)N[C@@H](CCCNC(=N)N)C(=O)N[C@@H](CO)C(=O)NCC(=O)N[C@@H](CO)C(=O)N[C@@H](CCCCN)C(=O)N[C@@H](CO)C(=O)N[C@@H](CO)C(=O)N[C@@H](C(C)C)C(=O)N1)C(=O)N[C@H](C(=O)O)[C@@H](C)O | Acid-sensing ion channel 1 (ASIC1, Homo sapiens, UniProt P78348) | binding, SPR | – | pH 7.5 | 0.0127 µM
CC(=O)N[C@H]1[C@@H](OC[C@H](NC(=O)[C@H](C)NC(=O)[C@H](C)N)C(=O)N[C@H](C(=O)N[C@H](C(=O)N[C@H](C(=O)N2CCC[C@H]2C(=O)N[C@@H](C)C(=O)N2CCC[C@H]2C(=O)N[C@@H](C)C(N)=O)[C@@H](C)O[C@H]2O[C@H](CO)[C@H](O)[C@H](O)[C@H]2NC(C)=O)[C@@H](C)O[C@H]2O[C@H](CO)[C@H](O)[C@H](O)[C@H]2NC(C)=O)[C@@H](C)O[C@H]2O[C@H](CO)[C@H](O)[C@H](O)[C@H]2NC(C)=O)O[C@H](CO)[C@H](O)[C@@H]1O | Metalloprotease StcE (stcE, Escherichia coli O157:H7, UniProt O82882) | binding | Escherichia coli, EHEC | – | 0.00968 ± 0.0014 µM
CC[C@H](C)[C@H](N)C(=O)N[C@H](C(=O)N[C@@H](Cc1ccccc1)C(=O)N[C@@H](CSCC(N)=O)C(=O)N[C@@H](CC(=O)O)C(=O)N[C@@H](CC(C)C)C(=O)N[C@@H](CC(C)C)C(=O)N[C@@H](CSCC(N)=O)C(=O)N[C@@H](Cc1ccc(O)cc1)C(=O)N[C@@H](Cc1ccc(O)cc1)C(=O)NCC(=O)N[C@@H](CCCCN)C(=O)N[C@@H](CCCCN)C(=O)N[C@@H](CCCCN)C(N)=O)[C@@H](C)O | gag capsid C-terminal domain | binding, biolayer interferometry | PBS | pH 7.4, 30 °C, biotinylated peptide immobilised, together with: C-CA 5 to 100 µM | 5.5 ± 0.6 µM
C=CC(c1ccc(-c2ccc(OC)c(C)c2)cc1)n1ccnc1 (stereo not drawn) | cyp121 | binding | – | – | 5.8 ± 0.5 µM
CC(C)=CCC[C@](C)(O[C@@H]1O[C@H](CO[C@@H]2O[C@H](CO)[C@@H](O)[C@H](O)[C@H]2O)[C@@H](O)[C@H](O)[C@H]1O)[C@H]1CC[C@]2(C)[C@@H]1[C@H](O)C[C@@H]1[C@@]3(C)CC[C@H](O[C@@H]4O[C@H](CO)[C@@H](O)[C@H](O)[C@H]4O)C(C)(C)[C@@H]3CC[C@]12C | Spike glycoprotein | binding, biolayer interferometry | – | – | 117 µM
charybdotoxin | maxi-KCa channel, rat | channel block, planar bilayer single-channel | – | external site, +30 mV, together with: 460 nM internal DTX-I | 0.00121 ± 0.00021 µM
Nc1ncnc2c1ncn2[C@@H]1O[C@H](CN(CC[C@H](N)C(=O)O)Cc2cn(CCNC(=O)c3ccc4c(c3)C(=O)OC43c4ccc(O)cc4Oc4cc(O)ccc43)nn2)[C@@H](O)[C@H]1O | Genome polyprotein, NS5 methyltransferase domain (Yellow fever virus, UniProt P03314) | binding | – | – | 3 µM
CC(C)=CCc1cc2c(cc1O)O[C@H](c1ccc(O)cc1)CC2=O | Spike glycoprotein | binding | – | – | 56 µM
C=CC(c1ccc(-c2ccc(C#N)cc2)cc1)n1ccnc1 (stereo not drawn) | cyp121 | binding | – | – | 10 ± 1.4 µM
COc1cc(O)c(CC=C(C)C)c2c1C(=O)CC(c1ccc(O)cc1)O2 (stereo not drawn) | Spike glycoprotein | binding, biolayer interferometry | – | – | 10.6 µM
CC[C@H]1CN2CCc3cc(OC)c(OC)cc3[C@@H]2C[C@@H]1C[C@H]1NCCc2cc(OC)c(OC)cc21 | Nucleoprotein (Severe acute respiratory syndrome coronavirus 2, UniProt P0DTC9) | binding, SPR | – | – | 18.6 µM
C=CC(c1ccc(-c2ccc3c(c2)OCO3)cc1F)n1ccnc1 (stereo not drawn) | cyp121 | binding | – | – | 4.2 ± 0.3 µM
CC[C@H](C)[C@H](N)C(=O)N[C@H](C(=O)N[C@@H](Cc1ccccc1)C(=O)N[C@H]1CSc2cc(C(F)(F)F)c(cc2C(F)(F)F)SC[C@@H](C(=O)N[C@@H](Cc2ccc(O)cc2)C(=O)N[C@@H](Cc2ccc(O)cc2)C(=O)NCC(=O)N[C@@H](CCCCN)C(=O)N[C@@H](CCCCN)C(=O)N[C@@H](CCCCN)C(N)=O)NC(=O)[C@H](CC(C)C)NC(=O)[C@H](CC(C)C)NC(=O)[C@H](CC(=O)O)NC1=O)[C@@H](C)O | gag capsid C-terminal domain | binding, biolayer interferometry | PBS | pH 7.4, 30 °C, biotinylated peptide immobilised, together with: C-CA 5 to 100 µM | 12 ± 0.8 µM
CC(C)OC(=O)[C@H](C)N[P@](=O)(OC[C@H]1O[C@@H](n2ccc(=O)[nH]c2=O)[C@](C)(F)[C@@H]1O)Oc1ccccc1 | Genome polyprotein, NS5 RdRp domain (Yellow fever virus, UniProt P03314) | – | – | – | 6230 µM
O=C(O[C@@H]1O[C@@H]2COC(=O)c3cc(O)c(O)c(O)c3-c3c(cc(O)c(O)c3O)C(=O)O[C@H]([C@H]1O)[C@@H]2O)c1cc(O)c(O)c(O)c1 | Spike glycoprotein | binding, biolayer interferometry | – | – | 0.931 µM
C=CC(c1ccc(-c2ccc(OC)c(OC)c2)cc1)n1ccnc1 (stereo not drawn) | cyp121 | binding | – | – | 21.3 ± 1.1 µM
CC[C@H](C)[C@H](N)C(=O)N[C@H](C(=O)N[C@@H](Cc1ccccc1)C(=O)N[C@H]1CSc2c(F)c(F)c(c(F)c2F)-c2c(F)c(F)c(c(F)c2F)SC[C@@H](C(=O)N[C@@H](Cc2ccc(O)cc2)C(=O)N[C@@H](Cc2ccc(O)cc2)C(=O)NCC(=O)N[C@@H](CCCCN)C(=O)N[C@@H](CCCCN)C(=O)N[C@@H](CCCCN)C(N)=O)NC(=O)[C@H](CC(C)C)NC(=O)[C@H](CC(C)C)NC(=O)[C@H](CC(=O)O)NC1=O)[C@@H](C)O | gag capsid C-terminal domain | binding, biolayer interferometry | PBS | pH 7.4, 30 °C, biotinylated peptide immobilised, together with: C-CA 5 to 100 µM | > 100 µM

A few entries again:
Molecule | target | assay | system | setting | Kd
COc1cc(O)c(CC=C(C)C)c2c1C(=O)CC(c1ccc(O)cc1)O2 (stereo not drawn) | Spike glycoprotein | binding, biolayer interferometry | – | – | 10.6 µM
CC[C@H]1CN2CCc3cc(OC)c(OC)cc3[C@@H]2C[C@@H]1C[C@H]1NCCc2cc(OC)c(OC)cc21 | Nucleoprotein (Severe acute respiratory syndrome coronavirus 2, UniProt P0DTC9) | binding, SPR | – | – | 18.6 µM
